Published values of several laboratories.
Each line is one published result; not all experiments were run side by side. Values joined by “and” are separate records of one study, mostly repeats; a detail may differ. ± marks the error that the study gave.

Cc1nn(C(C)c2nnc(Nc3ccn(Cc4ccccc4)n3)s2)c(C)c1Br (stereo not shown)  CC50 (TZM-bl; cell viability, PrestoBlue): > 12.5 µM
O=C(CNc1nc(NS(=O)(=O)c2ccccc2)ncc1-c1nc2ccccc2s1)c1ccc(Cl)cc1  maximum non-toxic concentration (BGM; cytotoxicity; 72 h): 110 µg/mL
Cc1noc(C)c1Cn1cc(N2C(=O)CN(Cc3cccc(O)c3)C2=O)cn1  aberrant cells with gaps (human blood lymphocytes; 600 µg/mL, 21 h): 0.5%
Cc1cc(C(=O)NC(C)(C)COc2cccc3c2C(N)=NS(=O)(=O)N3)cc(C)n1  cytotoxicity (human peripheral blood lymphocytes; CBPI, concurrent micronucleus test; 500 µg/mL, 4 h, with: rat liver S9; relative to: vehicle control): -5%
CCSc1c(-c2nc3ccccc3s2)c(N)n(NS(=O)(=O)c2ccc(C)cc2)c(=O)c1C#N  maximum non-toxic concentration (BGM; 72 h): 120 µg/mL
Cc1[nH]c2ccccc2c1-c1csc(-c2c[nH]c3ccccc23)n1  host DNA replication (HPV18 keratinocyte raft cultures; BrdU incorporation; mid strata; concentration not given): no inhibition
CC(=O)OC[C@H]1O[C@@H]([S-])[C@H](OC(C)=O)[C@@H](OC(C)=O)[C@@H]1OC(C)=O.CCP(CC)CC.[Au+]  cytotoxicity (MEC2; XTT; 0.1 µM, 3 days): not toxic
COc1ccc(-c2nc(NS(=O)(=O)c3ccc(C)cc3)nc(N)c2-c2nc3ccccc3s2)cc1  maximum non-toxic concentration (BGM; cytotoxicity; 72 h): 90 µg/mL
CSc1c(-c2nc3ccccc3s2)c(N)n(NS(=O)(=O)c2ccccc2)c(=O)c1C#N  maximum non-toxic concentration (BGM; 72 h): 90 µg/mL
Cc1ccc(C(=O)CNc2nc(NS(=O)(=O)c3ccccc3)ncc2-c2nc3ccccc3s2)cc1  maximum non-toxic concentration (BGM; cytotoxicity; 72 h): 90 µg/mL
CSc1c(-c2nc3ccccc3s2)c(N)n(NS(=O)(=O)c2ccc(C)cc2)c(=O)c1C#N  maximum non-toxic concentration (BGM; 72 h): 110 µg/mL
O=C(c1cc(-n2sc3ncccc3c2=O)ccc1Cl)N1CCOCC1  CC50 (TZM-bl; viability): > 100 µM
CCSc1c(-c2nc3ccccc3s2)c(N)n(NS(=O)(=O)c2ccccc2)c(=O)c1C#N  maximum non-toxic concentration (BGM; 72 h): 120 µg/mL
Nc1nc(NS(=O)(=O)c2ccccc2)nc(-c2ccccc2)c1-c1nc2ccccc2s1  maximum non-toxic concentration (BGM; cytotoxicity; 72 h): 90 µg/mL
Nc1n[nH]c2c(-c3nc4ccccc4s3)c(N)n(NS(=O)(=O)c3ccccc3)c(=O)c12  maximum non-toxic concentration (BGM; 72 h): 90 µg/mL
O=C(c1ccc(C(=O)N2CCC(N3CCCC3)CC2)c(Nc2ccccc2)c1)N1CCC(N2CCCC2)CC1  viability (HEK-293T/17; CellTiter-Glo; up to 100 µM, 24 h): not toxic
N#Cc1cc(C#N)c(=O)n(NS(=O)(=O)c2ccccc2)c1N  maximum non-toxic concentration (BGM; 72 h): 90 µg/mL
COc1cccc2c1C(=O)c1c(O)c3c(c(O)c1C2=O)C[C@@](O)(C(=O)CO)C[C@@H]3O[C@H]1C[C@H](N)[C@H](O)[C@H](C)O1  viability (BNL mouse liver cells; SRB; 0.1 µM, 10% fetal bovine serum): 99%
C[C@]12CC[C@@H]3c4ccc(O)cc4C[C@@H](CCCCCCCCC[S+]([O-])CCCC(F)(F)C(F)(F)F)[C@H]3[C@@H]1CC[C@@H]2O (stereo partly shown)  viability (LCC2 tamoxifen-resistant; CCK-8; 100 nM; relative to: untreated): 94.8% and 95.2% and 84.6%
COc1c(C)c(OC)c2c(c1C)OC(c1ccccc1)CC2=O (stereo not shown)  IC50 (normal human liver cell line; cytotoxicity, SRB; 72 h): > 50 µM
Cc1cc(/C=C/C#N)cc(C)c1Nc1ccnc(Nc2ccc(C#N)cc2)n1  CC50 (TZM-bl; CellTiter-Blue; 48 h): > 5 µM
O=c1c2ccccc2sn1Cc1ccc(Cl)cc1  CC50 (TZM-bl; viability): > 100 µM
CN1C[C@@H]2C[C@H]1CN2c1cc2c(cc1F)c(=O)c(C(=O)O)cn2C1CC1  efflux ratio (parental MDCK-II; transepithelial transport; 10 µM, 4 h; relative to: B-A over A-B): 1.08 ± 0.18
O=P1(C2CCCCC2)CCCCC1  viability (PC-3; trypan blue; IC50, 72 h): 94.7%
O=C(C[C@@H](C(F)F)n1ccc(F)n1)N1CCC(O)(Cn2cnc3c(cnn3-c3ccc(F)cc3)c2=O)CC1  viability (CHP-212 parental; SRB; 0.02744 µM): 75.9% and 71.4%
O=C(O[C@@H]1COC(=O)c2cc(O)c(O)c(O)c2-c2c(cc(O)c(O)c2O)C(=O)O[C@H]1[C@@H]1OC(=O)c2cc(O)c(O)c(O)c2-c2c(O)c(O)c(O)c3c2C(=O)O[C@H]1[C@@H]3O)c1cc(O)c(O)c(O)c1  viability (SIM-A9 microglia; MTT; 6.67 to 213.3 µM): > 75%
CSc1nc(NS(=O)(=O)c2ccc(C)cc2)nc(N)c1-c1nc2ccccc2s1  maximum non-toxic concentration (BGM; cytotoxicity; 72 h): 100 µg/mL
COc1cc2ncnc(Nc3ccc(Oc4ccccc4)c(C)c3C)c2cc1OC.Cl  viability (MeWo (NF1 mutant); resazurin; 0.3 µM, 72 h, unit not given, with: trametinib; relative to: DMSO): 0.888
COC[C@@H](CC(C)C)NC(=O)c1ccc(C)c(C)c1  mean mitotic index (primary human lymphocytes; 280 µg/mL, 4 (unit not given), with S9): 10.9
Nc1nc(NS(=O)(=O)c2ccccc2)nc(-c2ccc(Cl)cc2)c1-c1nc2ccccc2s1  maximum non-toxic concentration (BGM; cytotoxicity; 72 h): 100 µg/mL
O[C@H]1[C@H](OCc2cn(Cc3ccc(F)cc3)nn2)O[C@H]2[C@@H]1OC[C@H]2O  viability (CAL-51; cytotoxicity, CellTiter-Glo; up to 30 µM, 72 h): not toxic
Cc1ccc(-c2nc(NS(=O)(=O)c3ccc(C)cc3)nc(N)c2-c2nc3ccccc3s2)cc1  maximum non-toxic concentration (BGM; cytotoxicity; 72 h): 90 µg/mL
CS(=O)(=O)CCNCc1ccc(-c2ccc3ncnc(Nc4ccc(OCc5cccc(F)c5)c(Cl)c4)c3c2)o1  CC50 (Ba/F3 IL-3-dependent; cell proliferation; 48 h, counter-screen): > 3.33 µM
Cc1ccc(-c2nc(NS(=O)(=O)c3ccccc3)nc(N)c2-c2nc3ccccc3s2)cc1  maximum non-toxic concentration (BGM; cytotoxicity; 72 h): 90 µg/mL
CCn1c(=O)c(-c2cc[nH]n2)cc2c(C)nc(N)nc21  cytotoxicity (RD; MTT; up to 0.8 µM, 24 h): not toxic
FC(F)(F)CN1CC(n2cc(Oc3ccn4nc(Cl)cc4n3)cn2)C1  Papp (A-B) (Caco-2/TC7; 20 µM): 61.8 ×10⁻⁶ cm/s
Cc1cc(C)c(CNC(=O)c2cc(Cl)c3c(c2C)O[C@@](C)([C@H]2CC[C@H](N(C)C)CC2)O3)c(=O)[nH]1  Papp A to B (Caco-2; 20 µM): 0.41 ± 0.013 ×10⁻⁶ cm/s

Repeated from above:
Nc1nc(NS(=O)(=O)c2ccccc2)nc(-c2ccccc2)c1-c1nc2ccccc2s1  maximum non-toxic concentration (BGM; cytotoxicity; 72 h): 90 µg/mL
COC[C@@H](CC(C)C)NC(=O)c1ccc(C)c(C)c1  mean mitotic index (primary human lymphocytes; 280 µg/mL, 4 (unit not given), with S9): 10.9
CN1C[C@@H]2C[C@H]1CN2c1cc2c(cc1F)c(=O)c(C(=O)O)cn2C1CC1  efflux ratio (parental MDCK-II; transepithelial transport; 10 µM, 4 h; relative to: B-A over A-B): 1.08 ± 0.18
C[C@]12CC[C@@H]3c4ccc(O)cc4C[C@@H](CCCCCCCCC[S+]([O-])CCCC(F)(F)C(F)(F)F)[C@H]3[C@@H]1CC[C@@H]2O (stereo partly shown)  viability (LCC2 tamoxifen-resistant; CCK-8; 100 nM; relative to: untreated): 94.8% and 95.2% and 84.6%
CCSc1c(-c2nc3ccccc3s2)c(N)n(NS(=O)(=O)c2ccc(C)cc2)c(=O)c1C#N  maximum non-toxic concentration (BGM; 72 h): 120 µg/mL
FC(F)(F)CN1CC(n2cc(Oc3ccn4nc(Cl)cc4n3)cn2)C1  Papp (A-B) (Caco-2/TC7; 20 µM): 61.8 ×10⁻⁶ cm/s
